Published values from different studies.
Lines come from different studies, so protocols differ. ± gives the spread as reported.
RORC: Nuclear receptor ROR-gamma (RORC, Homo sapiens, UniProt P51449)
ESR1: Estrogen receptor (ESR1, Homo sapiens, UniProt P03372)
CDK2 with cyclin A: Cyclin-dependent kinase 2, with cyclin A (CDK2, Homo sapiens, UniProt P24941)

For `CC(C)CCCC(C)C1CCC2C(C(=O)O)C([C@]3(C)C=CC(=O)CC3)CC[C@]12C` (stereo partly shown), the EC50 was 31000 nM (Voltage-gated potassium channel, KQT; KCNQ2(Kv7.2)/KCNQ3(Kv7.3) (KCNQ3/KCNQ2, Homo sapiens, UniProt O43525+O43526); G(V) shift, activator, two-electrode voltage clamp; pH 7.4).
With `CCCCC[C@H](O)/C=C/[C@H]1[C@H](O)CC(=O)[C@@H]1C/C=C\CCCC(=O)O` the EC50 was 2.62 nM (Prostaglandin E2 receptor EP1 subtype (PTGER1, Homo sapiens, UniProt P34995, G92S); IP1 accumulation, agonist; AD293; EP1 G92S mutant).
The EC50 of `O=S(=O)(c1cccc(C(F)(F)F)c1)N1CCc2ccc(OCc3c(Cl)ccnc3Cl)cc21` is reported as 160 ± 30 nM (RORC; reporter gene, agonist, GAL4 luciferase reporter; with: ursolic acid 2 µM).
The EC50 of `CCC(C)(C)C(=O)C(=O)N1CCCC[C@H]1C(=O)N[C@H](CCc1ccc(OC)cc1)C(=O)N1[C@@H]2CC[C@H]1C[C@H](Nc1nc(NCCc3sc(N)nc3C)nc(N3CCn4ncnc4C3)n1)C2` is reported as 12100 nM (Autophagy-related protein 16-1 (ATG16L1, Homo sapiens, UniProt Q676U5, T300A); protection from caspase-3 cleavage, AlphaLISA).
The EC50 of `COc1c(O)cc2oc(-c3ccc(O)cc3)cc(=O)c2c1O` is reported as 8500 ± 1100 nM (Gamma-aminobutyric acid receptor subunit alpha-1 (GABRA1, Homo sapiens, UniProt P14867, D219N); Western blot, refers to: GABRA1 D219N protein level; HEK293T stably expressing α1 D219N; 24 h).
For `Cn1cc(-c2ccc(-c3cncc(Cl)c3N3CCC4(CCNC4=O)CC3)cc2)cn1`, “log2 fold change” read -3.11 (COLO 205; gene expression, microarray, refers to: SLC2A4 mRNA; concentration not given, 2 h; relative to: untreated cells).
With `COc1cccc(S(=O)(=O)N2CCc3ccc(OCc4c(F)cccc4Cl)cc32)c1` the EC50 was 650 ± 210 nM (RORC; reporter gene, agonist, GAL4 luciferase reporter; with: ursolic acid 2 µM).
With `CC(C)=CCc1c(O)ccc(C(=O)/C=C/c2ccc(O)cc2)c1O` the EC50 was 4170 nM (ESR1; array formation, agonist; ERα-GFP PRL-HeLa; 1 h).
For `O=S(=O)(c1cc(Cl)cc(Cl)c1)N1CCc2ccc(OCc3c(F)cccc3Cl)cc21`, the EC50 was 380 ± 100 nM (RORC; reporter gene, agonist, GAL4 luciferase reporter; with: ursolic acid 2 µM).
`O=c1c(O)c(-c2cc(O)c(O)c(O)c2)oc2cc(O)cc(O)c12` has an EC50 of 1000 nM (ESR1; array formation, agonist; ERα-GFP PRL-HeLa; 1 h).
For `COc1ccccc1COc1ccc2c(c1)N(S(=O)(=O)c1cccc(C(F)(F)F)c1)CC2`, the EC50 was 620 ± 160 nM (RORC; reporter gene, agonist, GAL4 luciferase reporter; with: ursolic acid 2 µM).
With `O=C1Nc2c(ccc(Cl)c2Cl)C1=NO` the EC50 was 1270 nM (KCNN4/CALM1 (Homo sapiens, UniProt O15554+P0DP23, L185A); ion current, activator, whole-cell patch clamp).
For `O=c1cc(-c2ccc(O)cc2)oc2cc(O)c(O)c(O)c12`, the EC50 was 3190 nM (ESR1; array formation, agonist; ERα-GFP PRL-HeLa; 1 h).
`O=S(=O)(c1cccc(C(F)(F)F)c1)N1CCc2ccc(OCc3c(Cl)cncc3Cl)cc21` has an EC50 of 450 ± 100 nM (RORC; reporter gene, agonist, GAL4 luciferase reporter; with: ursolic acid 2 µM).
With `O=C(COP(=O)(O)O)[C@@H](O)[C@H](O)[C@H](O)COP(=O)(O)O` the EC50 was 52.3 ± 17.3 nM (Pyruvate kinase PKM (PKM, Homo sapiens, UniProt P14618); enzyme activity, activator; without AIM).
With `CC(=O)c1cc([N+](=O)[O-])c(Sc2cccc(Cl)c2Cl)s1` the EC50 was > 50000 nM (Sentrin-specific protease 1 (SENP1, Homo sapiens, UniProt Q9P0U3); enzyme activity, inhibitor).
For `CC(Oc1ccc2c(c1)N(S(=O)(=O)c1cccc(C(F)(F)F)c1)CC2)c1c(F)cccc1Cl` (stereo not shown), the EC50 was 750 ± 250 nM (RORC; reporter gene, agonist, GAL4 luciferase reporter; with: ursolic acid 2 µM).
`CC(C)C[C@H](NC(=O)C[C@H](O)[C@H](CC(C)C)NC(=O)[C@H](Cc1c[nH]cn1)NC(=O)CNC(=O)[C@@H](NC(=O)[C@H](C)NC(=O)[C@H](Cc1c[nH]c2ccccc12)NC(=O)[C@H](CCC(N)=O)NC(=O)[C@@H](Cc1ccccc1)NC(=O)COCCOCCNC(=O)CCC(C(=O)O)N1CCN(CC(=O)O)CCN(CC(=O)O)CCN(CC(=O)O)CC1)C(C)C)C(N)=O` (stereo partly shown) [lutetium-177 labelled] has a tissue uptake of 0.7 ± 0.3 %ID/g (BALB/c nu/nu mice, small intestine; 250 pmol, 1 h, with: PA 300 µg).
The EC50 of `O=c1c(O)c(-c2ccc(O)c(O)c2)oc2cc(O)ccc12` is reported as 1360 nM (ESR1; array formation, agonist; ERα-GFP PRL-HeLa; 1 h).
The EC50 of `COc1c([C@H]2[C@H](C(=O)Nc3ccnc(C(N)=O)c3)O[C@@](C)(C(F)(F)F)[C@H]2C)ccc(F)c1F` is reported as ≥ 30000 nM (Progesterone receptor (PGR, Homo sapiens, UniProt P06401); agonist).
`NC(=O)c1ccc(NCCCN2CCOCC2)c([N+](=O)[O-])c1` gave a Kd of > 100000 nM (CDK2 with cyclin A).
`O=c1cc(-c2ccc(O)cc2)oc2c([C@@H]3O[C@H](CO)[C@@H](O)[C@H](O)[C@H]3O)c(O)cc(O)c12` gave an EC50 of 911 nM (ESR1; array formation, agonist; ERα-GFP PRL-HeLa; 1 h).
For `O=S(=O)(c1cccc(C(F)(F)F)c1)N1c2cc(OCc3c(F)cccc3Cl)ccc2CC1C(F)(F)F` (stereo not shown), the EC50 was 150 nM (RORC; IL-17 production, inverse agonist; HEK-293T; with: ursolic acid).
`CC(=O)Nc1ccc(S(=O)(=O)Nc2c(C)nn(-c3ccccc3)c2C)cc1` has a Kd of > 100000 nM (CDK2 with cyclin A).
With `CC(C)=CCc1cc(-c2coc3cc(O)ccc3c2=O)ccc1O` the EC50 was 4920 nM (ESR1; array formation, agonist; ERα-GFP PRL-HeLa; 1 h).
For `Cn1cc2c(C(=O)O)ccc(NS(=O)(=O)c3ccc(OCC4CCC4)c(Cl)c3)c2n1`, the EC50 was > 10000 nM (Cannabinoid receptor 1 (CNR1, Homo sapiens, UniProt P21554); antagonist).
The EC50 of `O=c1cc(-c2ccc(O)cc2)oc2cc(O[C@@H]3O[C@H](CO)[C@@H](O)[C@H](O)[C@H]3O)cc(O)c12` is reported as 2310 nM (ESR1; array formation, agonist; ERα-GFP PRL-HeLa; 1 h).
The EC50 of `O=S(=O)(c1cccc(C(F)(F)F)c1)N1CCc2ccc(OCc3c(Cl)cncc3C(F)(F)F)cc21` is reported as 600 ± 110 nM (RORC; reporter gene, agonist, GAL4 luciferase reporter; with: ursolic acid 2 µM).
For `CCCCCCCP(=O)(C(C)C)C(C)C`, the EC50 was 1620 ± 630 nM (Transient receptor potential cation channel subfamily M member 8 (Trpm8, Rattus norvegicus, UniProt Q8R455); calcium influx, agonist, calcium imaging; 25 °C).
With `CN1CCC(c2c(O)cc(O)c3c(=O)cc(-c4ccccc4Cl)oc23)C1CO` (stereo not shown) the EC50 was 2790 nM (ESR1; array formation, agonist; ERα-GFP PRL-HeLa; 1 h).
`COc1cc(F)c([C@@H]2CNC(=O)[C@H]2NC(=O)Nc2ccccc2)c(F)c1` gave an EC50 of 47 nM (Formyl peptide receptor 2 (Rattus norvegicus, UniProt A0A8I6AM80); β-arrestin1 recruitment, agonist, BRET; HEK293 expressing rat FPR2).

For quick reference, copied from above:
For `Cn1cc2c(C(=O)O)ccc(NS(=O)(=O)c3ccc(OCC4CCC4)c(Cl)c3)c2n1`, the EC50 was > 10000 nM (Cannabinoid receptor 1 (CNR1, Homo sapiens, UniProt P21554); antagonist).
The EC50 of `O=c1cc(-c2ccc(O)cc2)oc2cc(O[C@@H]3O[C@H](CO)[C@@H](O)[C@H](O)[C@H]3O)cc(O)c12` is reported as 2310 nM (ESR1; array formation, agonist; ERα-GFP PRL-HeLa; 1 h).
The EC50 of `O=S(=O)(c1cccc(C(F)(F)F)c1)N1CCc2ccc(OCc3c(Cl)cncc3C(F)(F)F)cc21` is reported as 600 ± 110 nM (RORC; reporter gene, agonist, GAL4 luciferase reporter; with: ursolic acid 2 µM).
